{"data": "Published values pooled from the literature", "note": "A part holds a random share of what one study measured.", "sequence of UniProt P22607 (whole entry, looked up)": "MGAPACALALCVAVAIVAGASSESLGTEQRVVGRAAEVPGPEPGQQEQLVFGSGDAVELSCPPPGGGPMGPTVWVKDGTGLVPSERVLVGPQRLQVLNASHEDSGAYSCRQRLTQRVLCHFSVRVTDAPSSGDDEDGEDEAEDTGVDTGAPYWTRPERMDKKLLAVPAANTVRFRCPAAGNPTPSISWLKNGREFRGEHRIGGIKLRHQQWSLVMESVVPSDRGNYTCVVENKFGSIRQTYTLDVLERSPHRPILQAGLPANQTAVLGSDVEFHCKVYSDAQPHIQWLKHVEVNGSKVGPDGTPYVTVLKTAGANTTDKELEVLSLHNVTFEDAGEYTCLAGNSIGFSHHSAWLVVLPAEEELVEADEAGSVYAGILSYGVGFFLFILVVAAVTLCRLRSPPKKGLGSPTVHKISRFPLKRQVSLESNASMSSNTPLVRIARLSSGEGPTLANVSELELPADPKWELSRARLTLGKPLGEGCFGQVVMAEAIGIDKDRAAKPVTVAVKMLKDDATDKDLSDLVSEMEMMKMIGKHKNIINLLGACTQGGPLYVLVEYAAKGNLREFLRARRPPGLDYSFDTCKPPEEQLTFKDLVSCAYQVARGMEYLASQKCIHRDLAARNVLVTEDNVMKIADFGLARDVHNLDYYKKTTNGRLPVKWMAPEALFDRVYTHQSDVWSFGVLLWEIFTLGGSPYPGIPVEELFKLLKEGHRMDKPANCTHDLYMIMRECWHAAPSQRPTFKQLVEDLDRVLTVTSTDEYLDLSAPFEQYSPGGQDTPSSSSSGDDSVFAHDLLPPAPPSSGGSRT", "sequence of UniProt Q9Y2U5 (whole entry, looked up)": "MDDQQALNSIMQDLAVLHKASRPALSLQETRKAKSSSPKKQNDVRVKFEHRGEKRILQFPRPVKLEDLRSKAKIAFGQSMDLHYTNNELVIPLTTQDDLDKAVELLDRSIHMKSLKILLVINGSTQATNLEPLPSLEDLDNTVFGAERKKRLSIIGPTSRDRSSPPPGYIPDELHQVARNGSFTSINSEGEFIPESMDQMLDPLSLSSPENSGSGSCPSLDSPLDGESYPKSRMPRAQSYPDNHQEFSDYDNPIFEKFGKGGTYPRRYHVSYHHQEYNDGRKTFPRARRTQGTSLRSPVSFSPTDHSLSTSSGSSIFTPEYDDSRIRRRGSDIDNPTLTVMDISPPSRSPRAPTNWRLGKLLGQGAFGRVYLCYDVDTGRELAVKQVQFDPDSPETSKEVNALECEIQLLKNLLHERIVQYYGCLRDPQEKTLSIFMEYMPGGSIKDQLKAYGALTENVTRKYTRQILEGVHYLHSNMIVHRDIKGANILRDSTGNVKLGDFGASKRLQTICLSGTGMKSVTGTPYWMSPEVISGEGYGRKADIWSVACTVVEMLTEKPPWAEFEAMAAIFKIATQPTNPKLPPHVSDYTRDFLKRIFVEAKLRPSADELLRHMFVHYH", "sequence of UniProt Q12852 (whole entry, looked up)": "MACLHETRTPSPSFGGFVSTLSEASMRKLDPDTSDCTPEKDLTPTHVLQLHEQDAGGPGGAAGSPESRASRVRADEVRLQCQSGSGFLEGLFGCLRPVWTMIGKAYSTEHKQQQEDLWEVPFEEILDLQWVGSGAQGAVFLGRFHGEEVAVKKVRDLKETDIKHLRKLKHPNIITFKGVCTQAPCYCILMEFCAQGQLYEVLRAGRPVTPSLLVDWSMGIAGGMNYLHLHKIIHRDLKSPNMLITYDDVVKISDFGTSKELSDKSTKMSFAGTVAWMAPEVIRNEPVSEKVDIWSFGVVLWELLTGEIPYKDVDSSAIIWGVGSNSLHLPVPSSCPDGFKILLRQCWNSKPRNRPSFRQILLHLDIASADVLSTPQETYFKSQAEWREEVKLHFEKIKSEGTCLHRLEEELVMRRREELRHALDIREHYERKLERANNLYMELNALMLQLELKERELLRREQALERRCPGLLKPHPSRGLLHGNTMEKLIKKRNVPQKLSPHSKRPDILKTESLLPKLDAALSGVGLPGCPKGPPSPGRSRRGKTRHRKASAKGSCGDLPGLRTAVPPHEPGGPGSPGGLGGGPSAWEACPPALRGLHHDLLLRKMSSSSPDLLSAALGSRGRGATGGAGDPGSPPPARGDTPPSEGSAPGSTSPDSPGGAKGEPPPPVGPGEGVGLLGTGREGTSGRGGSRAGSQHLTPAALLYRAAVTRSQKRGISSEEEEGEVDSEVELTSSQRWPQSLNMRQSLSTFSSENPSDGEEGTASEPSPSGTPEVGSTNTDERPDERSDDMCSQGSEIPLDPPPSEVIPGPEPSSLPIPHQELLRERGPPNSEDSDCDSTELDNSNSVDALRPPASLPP", "sequence of UniProt P00519 (whole entry, unmodified, looked up)": "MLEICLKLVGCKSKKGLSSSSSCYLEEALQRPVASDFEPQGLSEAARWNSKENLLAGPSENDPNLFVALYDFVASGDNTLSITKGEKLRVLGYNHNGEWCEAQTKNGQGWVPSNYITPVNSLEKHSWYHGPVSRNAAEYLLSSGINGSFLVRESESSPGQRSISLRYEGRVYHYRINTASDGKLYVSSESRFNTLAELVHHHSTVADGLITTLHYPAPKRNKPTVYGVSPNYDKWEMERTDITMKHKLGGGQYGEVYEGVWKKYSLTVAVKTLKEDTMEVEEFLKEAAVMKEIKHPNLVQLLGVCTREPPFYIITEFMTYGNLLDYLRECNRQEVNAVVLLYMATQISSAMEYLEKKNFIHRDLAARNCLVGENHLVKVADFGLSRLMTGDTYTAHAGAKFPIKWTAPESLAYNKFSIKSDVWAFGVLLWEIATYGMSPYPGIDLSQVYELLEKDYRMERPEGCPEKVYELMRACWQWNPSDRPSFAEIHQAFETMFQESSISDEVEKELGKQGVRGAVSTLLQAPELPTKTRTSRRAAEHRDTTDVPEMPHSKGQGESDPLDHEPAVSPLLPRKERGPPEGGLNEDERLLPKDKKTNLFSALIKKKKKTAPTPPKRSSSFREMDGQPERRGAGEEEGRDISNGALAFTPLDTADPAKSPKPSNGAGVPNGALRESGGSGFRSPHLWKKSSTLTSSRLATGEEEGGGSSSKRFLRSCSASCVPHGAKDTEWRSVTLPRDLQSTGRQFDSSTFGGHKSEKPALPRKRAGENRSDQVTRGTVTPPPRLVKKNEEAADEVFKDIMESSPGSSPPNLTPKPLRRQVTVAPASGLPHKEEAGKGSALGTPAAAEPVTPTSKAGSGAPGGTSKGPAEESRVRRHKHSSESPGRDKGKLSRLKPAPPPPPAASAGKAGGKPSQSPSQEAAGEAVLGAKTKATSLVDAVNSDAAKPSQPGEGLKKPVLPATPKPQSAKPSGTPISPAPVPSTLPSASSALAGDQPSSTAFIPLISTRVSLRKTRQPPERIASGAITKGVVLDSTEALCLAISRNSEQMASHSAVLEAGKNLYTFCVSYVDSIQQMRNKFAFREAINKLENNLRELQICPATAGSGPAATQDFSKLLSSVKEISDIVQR", "sequence of UniProt Q99755 (whole entry, looked up)": "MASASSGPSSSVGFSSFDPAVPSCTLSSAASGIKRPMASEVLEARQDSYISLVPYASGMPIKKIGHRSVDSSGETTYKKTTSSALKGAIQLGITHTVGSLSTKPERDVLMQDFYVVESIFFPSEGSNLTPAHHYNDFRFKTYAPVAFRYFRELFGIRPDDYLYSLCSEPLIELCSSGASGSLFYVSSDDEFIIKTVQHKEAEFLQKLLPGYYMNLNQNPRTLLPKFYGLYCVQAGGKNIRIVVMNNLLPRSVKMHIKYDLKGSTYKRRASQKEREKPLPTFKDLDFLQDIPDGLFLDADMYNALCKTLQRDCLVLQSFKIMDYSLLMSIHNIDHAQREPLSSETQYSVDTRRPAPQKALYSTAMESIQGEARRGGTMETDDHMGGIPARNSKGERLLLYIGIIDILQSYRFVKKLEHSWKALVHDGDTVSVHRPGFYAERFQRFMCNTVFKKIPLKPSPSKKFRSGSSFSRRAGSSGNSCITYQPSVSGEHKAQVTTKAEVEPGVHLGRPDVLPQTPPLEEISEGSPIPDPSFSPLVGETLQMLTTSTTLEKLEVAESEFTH", "sequence of UniProt P54764 (whole entry, looked up)": "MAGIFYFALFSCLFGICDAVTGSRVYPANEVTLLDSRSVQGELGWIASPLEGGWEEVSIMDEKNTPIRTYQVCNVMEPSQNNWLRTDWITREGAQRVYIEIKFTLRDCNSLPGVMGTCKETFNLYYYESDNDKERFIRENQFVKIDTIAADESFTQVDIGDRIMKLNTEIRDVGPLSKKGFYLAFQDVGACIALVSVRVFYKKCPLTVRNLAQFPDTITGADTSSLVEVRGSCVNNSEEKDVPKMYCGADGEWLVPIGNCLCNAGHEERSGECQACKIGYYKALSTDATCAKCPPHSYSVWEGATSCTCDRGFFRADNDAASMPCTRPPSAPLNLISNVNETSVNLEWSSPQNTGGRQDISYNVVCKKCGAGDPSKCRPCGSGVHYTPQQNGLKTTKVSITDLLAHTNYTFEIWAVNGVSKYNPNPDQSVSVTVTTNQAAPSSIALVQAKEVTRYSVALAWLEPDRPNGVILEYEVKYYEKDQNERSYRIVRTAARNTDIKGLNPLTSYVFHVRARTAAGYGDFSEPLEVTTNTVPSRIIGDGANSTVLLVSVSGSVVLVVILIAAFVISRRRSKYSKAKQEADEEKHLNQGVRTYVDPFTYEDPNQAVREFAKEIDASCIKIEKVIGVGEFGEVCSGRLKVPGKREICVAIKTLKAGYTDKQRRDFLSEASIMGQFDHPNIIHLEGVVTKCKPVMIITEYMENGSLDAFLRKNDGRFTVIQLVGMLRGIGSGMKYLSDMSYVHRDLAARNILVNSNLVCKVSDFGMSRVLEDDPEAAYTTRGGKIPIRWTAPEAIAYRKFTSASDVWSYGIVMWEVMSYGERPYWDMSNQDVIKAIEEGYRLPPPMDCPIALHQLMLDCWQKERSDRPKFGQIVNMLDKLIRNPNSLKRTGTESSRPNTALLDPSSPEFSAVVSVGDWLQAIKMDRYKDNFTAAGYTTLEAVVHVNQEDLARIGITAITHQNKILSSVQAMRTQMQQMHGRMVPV"}
{"data": "Study 1", "SMILES": "O=C(NC[C@@H]1[C@H]2CN(C(=O)OCc3cc(C(F)(F)F)cc(C(F)(F)F)c3)C[C@@H]12)c1ccc2[nH]nnc2c1", "observed": "cell-free assay", "method": "competition with immobilised ligand", "concentration": "1 µM"}
{"target": "PIK3CA (Homo sapiens, UniProt P42336, M1043I)", "remaining binding [%]": 95}
{"target": "MAP3K12 (Homo sapiens, UniProt Q12852)", "remaining binding [%]": 100}
{"target": "EPHA4 (Homo sapiens, UniProt P54764)", "remaining binding [%]": 82}
{"target": "FGFR3 (Homo sapiens, UniProt P22607)", "remaining binding [%]": 82}
{"data": "Study 2", "target": "Diamine acetyltransferase 1 (Homo sapiens, UniProt P21673)", "action": "inhibitor", "concentration": "10 µM", "baseline": "control", "Construct (P21673 1-171)": "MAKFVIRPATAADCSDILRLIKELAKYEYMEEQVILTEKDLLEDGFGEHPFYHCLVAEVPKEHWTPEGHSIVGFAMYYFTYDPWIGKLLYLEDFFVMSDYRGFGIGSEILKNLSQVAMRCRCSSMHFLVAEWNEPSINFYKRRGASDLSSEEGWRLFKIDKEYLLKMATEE"}
{"SMILES": "NC(=O)NCCCC(N)C(=O)O (stereo not drawn)", "remaining activity [%]": 107}
{"SMILES": "CCCCCCCCCCCCCCCCCCCCCCCCCCCCO", "remaining activity [%]": 101}
{"SMILES": "CCCCCc1ccco1", "remaining activity [%]": 97.1}
{"SMILES": "O=C1c2ccccc2C(=O)c2c(O)ccc(O)c21", "remaining activity [%]": 88.4}
{"SMILES": "O=C1CCc2ccccc21", "remaining activity [%]": 77.4}
{"data": "Study 3", "target": "Serine/threonine-protein kinase 4 (STK4, Homo sapiens, UniProt Q13043)", "observed": "enzyme activity", "action": "inhibitor", "concentration": "0.5 µM", "baseline": "control", "Residues (Q13043 1-487)": "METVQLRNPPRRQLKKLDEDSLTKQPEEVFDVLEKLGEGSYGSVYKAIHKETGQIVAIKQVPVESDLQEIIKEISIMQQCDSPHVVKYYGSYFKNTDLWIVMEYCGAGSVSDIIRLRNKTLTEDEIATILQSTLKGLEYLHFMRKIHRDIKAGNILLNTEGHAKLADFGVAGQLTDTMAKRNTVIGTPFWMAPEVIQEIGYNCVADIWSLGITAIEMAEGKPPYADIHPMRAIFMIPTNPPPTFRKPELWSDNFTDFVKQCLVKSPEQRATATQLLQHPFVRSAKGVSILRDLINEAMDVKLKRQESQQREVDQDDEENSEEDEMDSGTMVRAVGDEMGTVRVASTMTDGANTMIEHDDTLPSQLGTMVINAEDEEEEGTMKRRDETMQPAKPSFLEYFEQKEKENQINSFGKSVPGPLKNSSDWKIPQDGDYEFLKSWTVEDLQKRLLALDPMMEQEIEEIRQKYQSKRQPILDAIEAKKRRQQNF"}
{"SMILES": "OCC(O)CCON=C1C(c2c(O)[nH]c3ccccc23)=Nc2ccccc21 (stereo not drawn)", "remaining activity [%]": 8.29}
{"SMILES": "O=S(=O)(c1cccc2cnccc12)N1CCCNCC1", "remaining activity [%]": 94.8}
{"SMILES": "O=C1NC(=O)C(c2cn(CCCn3ccnc3)c3ccccc23)=C1Nc1ccccc1", "remaining activity [%]": 40.9}
{"SMILES": "O=C(O)c1ccc2c3c1cccc3c(=O)n1c3ccccc3nc21", "remaining activity [%]": 93.3}
{"SMILES": "Cc1nc(-c2ccccc2)c(-c2ccncc2)o1", "remaining activity [%]": 104}
{"SMILES": "COc1cc2ncnc(Nc3ccc(F)c(Cl)c3)c2cc1OCCCN1CCOCC1", "remaining activity [%]": 101}
{"SMILES": "Cc1cccc(-c2[nH]c(C(C)(C)C)nc2-c2ccc3c(c2)OCO3)n1", "remaining activity [%]": 98.7}
{"SMILES": "COc1ccc(C(=O)Nc2sc3c(c2C(N)=O)CCCC3)cc1OC", "remaining activity [%]": 104}
{"SMILES": "O=C(Nc1cccc(Nc2cc(Nc3cccc(C(F)(F)F)c3)ncn2)c1)C1CC1", "remaining activity [%]": 99}
{"SMILES": "Oc1ccc(-c2nc(-c3ccncc3)c(-c3ccc(F)cc3)[nH]2)cc1", "remaining activity [%]": 105}
{"SMILES": "O=C1NC(=O)C(c2cn(CCCO)c3ncccc23)=C1c1cnccn1", "remaining activity [%]": 83.6}
{"SMILES": "CNC(=O)c1cc(Oc2ccc(NC(=O)Nc3ccc(Cl)c(C(F)(F)F)c3)cc2)ccn1", "remaining activity [%]": 101}
{"SMILES": "Cn1c2ccccc2c2c3c(c4c5ccccc5n(CCC#N)c4c21)CNC3=O", "remaining activity [%]": 3.73}
{"SMILES": "CN(C)c1ccc(C=C2C(=O)Nc3ccccc32)cc1", "remaining activity [%]": 93.2}
{"SMILES": "Cc1ccc(Nc2nccc(N(C)c3ccc4c(C)n(C)nc4c3)n2)cc1S(N)(=O)=O", "remaining activity [%]": 98.4}
{"SMILES": "COc1cc2nccc(Oc3ccc(NC(=S)NC(=O)c4ccccc4C)cc3)c2cc1OC", "remaining activity [%]": 95.6}
{"data": "Study 4", "SMILES": "C[C@H]1CC[C@H](n2c3cnccc3c3cnc(Nc4ccc5c(n4)CCN(C(=O)CO)C5)nc32)CC1", "observed": "cell-free assay", "concentration": "1 µM"}
{"target": "ABL1 (Homo sapiens, UniProt P00519, Q252H)", "remaining signal [%]": 66}
{"target": "MTOR (Homo sapiens, UniProt P42345)", "remaining signal [%]": 100}
{"target": "ROS1 (Homo sapiens, UniProt P08922)", "remaining signal [%]": 100}
{"target": "MAP3K15 (Homo sapiens, UniProt Q6ZN16)", "remaining signal [%]": 100}
{"target": "RIPK4 (Homo sapiens, UniProt P57078)", "remaining signal [%]": 100}
{"data": "Study 5", "SMILES": "CC(C)S(=O)(=O)c1ccc2nccc(Nc3ccc4sc(C5CCCC5)nc4c3)c2c1", "observed": "kinase activity", "action": "inhibitor", "concentration": "1 µM"}
{"target": "CSNK1A1 (Homo sapiens, UniProt P48729)", "remaining activity [%]": 100}
{"target": "PIP5K1A (Homo sapiens, UniProt Q99755)", "remaining activity [%]": 102}
{"target": "MAP3K2 (Homo sapiens, UniProt Q9Y2U5)", "remaining activity [%]": 99.5}
{"note": "Repeated from above (study 4):"}
{"target": "ABL1 (Homo sapiens, UniProt P00519, Q252H)", "remaining signal [%]": 66}
{"target": "MTOR (Homo sapiens, UniProt P42345)", "remaining signal [%]": 100}
{"target": "ROS1 (Homo sapiens, UniProt P08922)", "remaining signal [%]": 100}
{"target": "MAP3K15 (Homo sapiens, UniProt Q6ZN16)", "remaining signal [%]": 100}
{"target": "RIPK4 (Homo sapiens, UniProt P57078)", "remaining signal [%]": 100}
